Measurements from different studies.
Every numbered part comes from another study and shows a few of its results, in no order.
Chain of UniProt P10721 (whole entry, unmodified, looked up): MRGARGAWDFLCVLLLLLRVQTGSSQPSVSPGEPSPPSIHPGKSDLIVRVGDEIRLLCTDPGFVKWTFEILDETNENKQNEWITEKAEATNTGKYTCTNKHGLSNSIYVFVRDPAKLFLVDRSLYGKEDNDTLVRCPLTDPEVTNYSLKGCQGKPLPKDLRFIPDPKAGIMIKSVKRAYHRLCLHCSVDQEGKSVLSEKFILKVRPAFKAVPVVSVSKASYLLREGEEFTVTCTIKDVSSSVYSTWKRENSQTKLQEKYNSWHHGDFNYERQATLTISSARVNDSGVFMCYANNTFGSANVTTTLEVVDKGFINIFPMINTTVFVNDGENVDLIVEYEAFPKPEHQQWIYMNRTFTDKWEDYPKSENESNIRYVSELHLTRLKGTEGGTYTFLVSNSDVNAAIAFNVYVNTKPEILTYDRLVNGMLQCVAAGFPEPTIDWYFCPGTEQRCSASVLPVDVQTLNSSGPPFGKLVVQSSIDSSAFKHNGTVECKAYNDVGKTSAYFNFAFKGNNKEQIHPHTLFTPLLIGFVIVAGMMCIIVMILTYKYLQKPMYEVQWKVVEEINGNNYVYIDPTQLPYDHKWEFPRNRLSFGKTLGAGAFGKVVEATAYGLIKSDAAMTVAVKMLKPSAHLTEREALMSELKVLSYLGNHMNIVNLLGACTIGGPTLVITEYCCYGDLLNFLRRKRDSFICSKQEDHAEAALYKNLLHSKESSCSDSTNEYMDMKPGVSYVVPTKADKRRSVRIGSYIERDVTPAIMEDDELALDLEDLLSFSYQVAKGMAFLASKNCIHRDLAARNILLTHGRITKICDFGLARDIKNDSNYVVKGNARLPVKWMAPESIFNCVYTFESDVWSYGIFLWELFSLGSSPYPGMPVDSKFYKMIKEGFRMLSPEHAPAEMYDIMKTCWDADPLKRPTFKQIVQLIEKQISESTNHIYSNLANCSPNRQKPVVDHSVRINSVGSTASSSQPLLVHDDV
Chain of UniProt O15530 (whole entry, looked up): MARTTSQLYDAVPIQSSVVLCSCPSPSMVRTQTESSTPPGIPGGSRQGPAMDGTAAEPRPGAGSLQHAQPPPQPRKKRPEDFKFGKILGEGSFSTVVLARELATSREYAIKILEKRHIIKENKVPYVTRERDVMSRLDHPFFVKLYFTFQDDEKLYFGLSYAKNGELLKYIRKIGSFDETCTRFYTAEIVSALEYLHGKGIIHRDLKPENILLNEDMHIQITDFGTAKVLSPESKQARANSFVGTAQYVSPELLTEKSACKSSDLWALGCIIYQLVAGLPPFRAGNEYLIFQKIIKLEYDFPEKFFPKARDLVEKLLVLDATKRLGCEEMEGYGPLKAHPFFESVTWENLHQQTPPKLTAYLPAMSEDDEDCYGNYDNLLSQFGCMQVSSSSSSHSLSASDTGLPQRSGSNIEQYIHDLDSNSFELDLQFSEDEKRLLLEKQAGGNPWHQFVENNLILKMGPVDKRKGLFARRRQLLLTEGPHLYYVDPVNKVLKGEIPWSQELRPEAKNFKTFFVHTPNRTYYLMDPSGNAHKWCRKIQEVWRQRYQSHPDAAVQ
Chain of UniProt P0C264 (whole entry, looked up): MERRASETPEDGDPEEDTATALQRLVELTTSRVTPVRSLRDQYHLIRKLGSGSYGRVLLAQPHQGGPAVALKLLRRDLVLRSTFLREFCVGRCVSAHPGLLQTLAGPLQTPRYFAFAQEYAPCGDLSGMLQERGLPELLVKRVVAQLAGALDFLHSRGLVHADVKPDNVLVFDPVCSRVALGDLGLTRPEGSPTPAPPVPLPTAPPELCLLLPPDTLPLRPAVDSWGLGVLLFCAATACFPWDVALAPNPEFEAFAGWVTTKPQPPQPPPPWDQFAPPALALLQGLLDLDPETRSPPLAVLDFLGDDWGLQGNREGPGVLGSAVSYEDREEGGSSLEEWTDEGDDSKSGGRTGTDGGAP
Chain of UniProt P27448 (whole entry, looked up): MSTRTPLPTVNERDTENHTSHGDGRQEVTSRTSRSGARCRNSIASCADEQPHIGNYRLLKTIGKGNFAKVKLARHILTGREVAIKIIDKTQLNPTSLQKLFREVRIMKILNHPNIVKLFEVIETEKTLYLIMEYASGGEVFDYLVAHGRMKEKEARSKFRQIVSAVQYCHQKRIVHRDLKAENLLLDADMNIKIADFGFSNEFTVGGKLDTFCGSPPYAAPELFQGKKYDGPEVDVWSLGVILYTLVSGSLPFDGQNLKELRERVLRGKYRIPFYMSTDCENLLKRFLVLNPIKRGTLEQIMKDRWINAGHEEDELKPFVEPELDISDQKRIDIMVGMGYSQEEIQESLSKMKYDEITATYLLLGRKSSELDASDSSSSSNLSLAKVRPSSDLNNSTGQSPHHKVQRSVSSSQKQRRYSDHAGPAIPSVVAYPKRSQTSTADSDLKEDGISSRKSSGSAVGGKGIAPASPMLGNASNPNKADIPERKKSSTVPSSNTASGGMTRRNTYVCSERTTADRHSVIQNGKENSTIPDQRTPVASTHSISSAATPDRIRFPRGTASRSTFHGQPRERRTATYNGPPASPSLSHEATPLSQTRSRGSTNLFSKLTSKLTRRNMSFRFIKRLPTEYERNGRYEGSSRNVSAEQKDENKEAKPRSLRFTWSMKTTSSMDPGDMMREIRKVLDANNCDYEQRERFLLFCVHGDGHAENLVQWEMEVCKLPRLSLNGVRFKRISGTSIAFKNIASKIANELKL
Chain of UniProt P54760 (whole entry, looked up): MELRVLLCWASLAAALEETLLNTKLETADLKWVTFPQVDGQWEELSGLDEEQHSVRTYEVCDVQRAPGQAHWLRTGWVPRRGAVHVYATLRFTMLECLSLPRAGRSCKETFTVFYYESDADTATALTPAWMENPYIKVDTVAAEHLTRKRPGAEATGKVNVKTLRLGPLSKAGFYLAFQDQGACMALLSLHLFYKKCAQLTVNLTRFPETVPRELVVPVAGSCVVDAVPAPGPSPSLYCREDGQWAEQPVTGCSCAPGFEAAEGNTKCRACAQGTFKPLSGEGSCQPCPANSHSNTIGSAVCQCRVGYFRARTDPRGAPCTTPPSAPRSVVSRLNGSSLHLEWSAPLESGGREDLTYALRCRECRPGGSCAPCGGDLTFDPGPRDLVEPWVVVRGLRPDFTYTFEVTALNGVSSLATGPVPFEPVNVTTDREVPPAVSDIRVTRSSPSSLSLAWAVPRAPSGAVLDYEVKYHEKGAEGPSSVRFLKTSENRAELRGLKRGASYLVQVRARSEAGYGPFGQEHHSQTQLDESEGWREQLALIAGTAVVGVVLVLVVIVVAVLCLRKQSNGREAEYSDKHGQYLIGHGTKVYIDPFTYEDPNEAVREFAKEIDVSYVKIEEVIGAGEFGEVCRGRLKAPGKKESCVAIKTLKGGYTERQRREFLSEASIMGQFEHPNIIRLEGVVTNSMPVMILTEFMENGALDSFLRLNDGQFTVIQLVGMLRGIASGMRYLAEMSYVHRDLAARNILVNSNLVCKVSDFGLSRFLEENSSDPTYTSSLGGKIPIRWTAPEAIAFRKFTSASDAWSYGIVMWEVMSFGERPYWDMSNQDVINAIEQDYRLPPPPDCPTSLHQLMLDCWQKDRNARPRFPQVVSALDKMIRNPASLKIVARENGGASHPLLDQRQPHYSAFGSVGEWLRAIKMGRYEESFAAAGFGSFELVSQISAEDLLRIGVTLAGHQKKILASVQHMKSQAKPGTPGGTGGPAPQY
Chain of UniProt P30530 (whole entry, looked up): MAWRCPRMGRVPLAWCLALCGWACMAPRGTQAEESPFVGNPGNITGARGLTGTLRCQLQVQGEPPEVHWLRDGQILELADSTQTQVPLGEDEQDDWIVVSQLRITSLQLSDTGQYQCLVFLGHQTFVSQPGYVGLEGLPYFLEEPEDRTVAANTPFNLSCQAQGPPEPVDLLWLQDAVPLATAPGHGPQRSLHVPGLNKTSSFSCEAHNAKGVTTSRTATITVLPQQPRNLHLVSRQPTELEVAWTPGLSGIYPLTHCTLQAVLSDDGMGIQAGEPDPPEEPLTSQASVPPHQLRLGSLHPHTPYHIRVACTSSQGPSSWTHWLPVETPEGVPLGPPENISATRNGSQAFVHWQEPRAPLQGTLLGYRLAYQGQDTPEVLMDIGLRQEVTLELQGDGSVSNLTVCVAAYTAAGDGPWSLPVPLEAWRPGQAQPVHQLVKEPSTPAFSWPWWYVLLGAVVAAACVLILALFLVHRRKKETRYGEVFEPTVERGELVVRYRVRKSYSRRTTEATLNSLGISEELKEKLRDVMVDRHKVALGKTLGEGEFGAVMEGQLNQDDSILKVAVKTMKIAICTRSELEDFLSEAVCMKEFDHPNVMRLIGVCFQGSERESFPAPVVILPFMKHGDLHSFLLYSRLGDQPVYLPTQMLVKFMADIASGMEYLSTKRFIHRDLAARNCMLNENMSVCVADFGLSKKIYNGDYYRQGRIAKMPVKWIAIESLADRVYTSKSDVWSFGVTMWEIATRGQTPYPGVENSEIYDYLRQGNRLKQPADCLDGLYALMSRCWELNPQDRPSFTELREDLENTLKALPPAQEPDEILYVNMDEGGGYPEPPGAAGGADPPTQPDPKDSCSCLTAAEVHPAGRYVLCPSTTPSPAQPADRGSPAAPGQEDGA

Study 1
SMILES: C[C@@H](c1cccc(C#N)c1)n1cc(Cl)cc(C(N)=O)c1=N
Observed: cell-free assay
Method: competition with immobilised ligand
Concentration: 1 µM
Microtubule-associated serine/threonine-protein kinase 1 (MAST1, Homo sapiens, UniProt Q9Y2H9) — remaining binding: 100%.
The remaining binding was 86% (Mast/stem cell growth factor receptor Kit (KIT, Homo sapiens, UniProt P10721, L576P)).
The remaining binding was 86% (Proto-oncogene tyrosine-protein kinase receptor Ret (RET, Homo sapiens, UniProt P07949, V804L)).
The remaining binding was 100% (cAMP-dependent protein kinase catalytic subunit beta (PRKACB, Homo sapiens, UniProt P22694)).
The remaining binding was 96% (Mitogen-activated protein kinase kinase kinase kinase 5 (MAP4K5, Homo sapiens, UniProt Q9Y4K4)).
It gave 78% for remaining binding (Mast/stem cell growth factor receptor Kit, autoinhibited (KIT, Homo sapiens, UniProt P10721)).
For Cyclin-dependent kinase 16 (CDK16, Homo sapiens, UniProt Q00536): remaining binding read 96%.
Uncharacterized serine/threonine-protein kinase SBK3 (SBK3, Homo sapiens, UniProt P0C264) — remaining binding: 95%.
The remaining binding was 100% (3-phosphoinositide-dependent protein kinase 1 (PDPK1, Homo sapiens, UniProt O15530)).
The remaining binding was 98% (MAP/microtubule affinity-regulating kinase 3 (MARK3, Homo sapiens, UniProt P27448)).
For Tyrosine-protein kinase ABL1, non-phosphorylated (ABL1, Homo sapiens, UniProt P00519, Q252H): remaining binding read 68%.
It gave 100% for remaining binding (Mast/stem cell growth factor receptor Kit (KIT, Homo sapiens, UniProt P10721, T670I/V559D)).

Study 2
Target: Calcium/calmodulin-dependent protein kinase type II subunit alpha (CAMK2A, Homo sapiens, UniProt Q9UQM7)
Chain of UniProt Q9UQM7 (whole entry, looked up): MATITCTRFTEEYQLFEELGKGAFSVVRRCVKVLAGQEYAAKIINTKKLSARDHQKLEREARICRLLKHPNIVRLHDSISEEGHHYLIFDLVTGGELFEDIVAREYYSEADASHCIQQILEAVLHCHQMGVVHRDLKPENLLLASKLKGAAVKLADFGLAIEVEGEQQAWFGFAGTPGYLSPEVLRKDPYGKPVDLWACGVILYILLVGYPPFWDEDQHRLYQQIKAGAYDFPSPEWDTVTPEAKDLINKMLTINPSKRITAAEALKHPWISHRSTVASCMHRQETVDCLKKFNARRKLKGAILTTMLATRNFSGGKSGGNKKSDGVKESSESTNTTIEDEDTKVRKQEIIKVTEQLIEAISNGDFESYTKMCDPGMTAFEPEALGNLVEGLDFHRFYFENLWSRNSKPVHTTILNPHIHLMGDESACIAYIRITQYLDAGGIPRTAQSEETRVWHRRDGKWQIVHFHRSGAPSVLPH
Observed: enzyme activity
Mode: inhibitor
Concentration: 10 µM
`C/C(=C\CNc1ncnc2nc[nH]c12)CO` gave an inhibition of -24%.
The inhibition of `CC1(C)S[C@@H]2[C@H](NC(=O)[C@H](NC(=O)N3CCNC3=O)c3ccccc3)C(=O)N2[C@H]1C(=O)O` is reported as -3%.
With `c1coc(CNc2ncnc3[nH]cnc23)c1` the inhibition was -4%.
The inhibition of `COc1c2c(cc3oc(C)cc(=O)c13)OC(C(C)(C)O[C@@H]1O[C@H](CO)[C@@H](O)[C@H](O)[C@H]1O)C2` (stereo partly shown) is reported as 36%.
With `COc1cc(C(=O)NCc2ccc(OCCN(C)C)cc2)cc(OC)c1OC` the inhibition was 6%.
With `CCOC(=O)/C=C/c1ccccc1` the inhibition was -25%.
The inhibition of `CC(C)Cc1ccc([C@H](C)C(=O)O)cc1` is reported as 1%.
`C[C@@H]1O[C@@H](O[C@H]2[C@H](Oc3cc(O)c4c(=O)cc(-c5ccc(O)c(O)c5)oc4c3)O[C@H](CO)[C@@H](O)[C@@H]2O)[C@H](O)[C@H](O)[C@H]1O` has an inhibition of -37%.
The inhibition of `O=C(O)/C=C/C=C/c1ccccc1` is reported as -1%.
`COc1ccc(-c2oc3cc(OC)c(OC)c(O)c3c(=O)c2OC)cc1OC` gave an inhibition of -8%.

Study 3
Method: PRP chromatography estimate
Sample: 1,9-decadiene/PBS
pH: 7.4
`CC(C)C[C@@H]1NC(=O)[C@H](CC(C)C)NC(=O)[C@@H](CC(C)C)NC(=O)[C@H](C)NC(=O)[C@H](C)NC(=O)[C@@H](CC(C)C)NC(=O)[C@H](C)NC1=O` gave a logD of -1.76.
The logD of `CC(C)C[C@@H]1NC(=O)[C@H](C(C)C)NC(=O)[C@H](Cc2cscn2)NC(=O)[C@@H](CC(C)C)NC(=O)[C@@H](CCC(=O)N2CCCC2)NC(=O)[C@H](CC(C)C)NC(=O)[C@@H](CC(C)C)NC1=O` is reported as -0.2.
`CC(C)C[C@@H]1NC(=O)[C@H](C)NC(=O)[C@@H](CCC(=O)N2CCCC2)NC(=O)[C@H](C)NC(=O)[C@H](C)NC(=O)[C@H](CC(C)C)NC(=O)[C@H](CC(C)C)NC1=O` has a logD of -3.57.
For `CC(C)C[C@@H]1NC(=O)[C@H](CC(C)C)NC(=O)[C@@H](C(C)C)NC(=O)[C@H](C)NC(=O)[C@H](C(C)C)NC(=O)[C@H](C)NC(=O)[C@H](C)NC1=O`, the logD was -2.96.
The logD of `CC(C)C[C@@H]1NC(=O)[C@H](CC(C)C)NC(=O)[C@@H](CC(C)C)NC(=O)[C@@H](C)NC(=O)[C@H](C)NC(=O)[C@H](Cc2cscn2)NC(=O)[C@H](CCC(=O)N2CCCC2)NC1=O` is reported as -2.88.
`CC(C)C[C@@H]1NC(=O)[C@H](C)NC(=O)[C@@H](CC(C)C)NC(=O)[C@H](C)NC(=O)[C@@H](Cc2cscn2)NC(=O)[C@H](CC(C)C)NC(=O)[C@@H](CC(C)C)NC1=O` gave a logD of -1.5.
With `CC(C)C[C@@H]1NC(=O)[C@H](C(C)C)NC(=O)[C@H](CCC(=O)N2CCCC2)NC(=O)[C@H](CC(C)C)NC(=O)[C@@H](CCC(=O)N2CCCC2)NC(=O)[C@H](CC(C)C)NC(=O)[C@@H](CC(C)C)NC1=O` the logD was -0.917.
For `CC(C)C[C@@H]1NC(=O)[C@H](CC(C)C)NC(=O)[C@@H](C(C)C)NC(=O)[C@H](C(C)C)NC(=O)[C@@H](Cc2cscn2)NC(=O)[C@H](Cc2cscn2)NC(=O)[C@H](CCC(=O)N2CCCC2)NC1=O`, the logD was -1.81.
`CC(C)C[C@@H]1NC(=O)[C@H](C)NC(=O)[C@H](CC(C)C)NC(=O)[C@H](C(C)C)NC(=O)[C@H](CC(C)C)NC(=O)[C@@H](CC(C)C)NC(=O)[C@H](CC(C)C)NC1=O` has a logD of 0.666.
With `CC(C)C[C@@H]1NC(=O)[C@H](CC(C)C)NC(=O)[C@@H](CC(C)C)NC(=O)[C@@H](CC(C)C)NC(=O)[C@@H](Cc2cscn2)NC(=O)[C@H](CC(C)C)NC(=O)[C@@H](CC(C)C)NC1=O` the logD was 1.62.

Study 4
SMILES: Ic1cccc(CSc2nnc(-c3ccncc3)o2)c1
Observed: enzyme activity
Mode: inhibitor
Concentration: 0.5 µM
Relative to: control
For Cyclin-dependent kinase 1, with cyclin B (CDK1, Homo sapiens, UniProt P06493): remaining activity read 92%.
For Tyrosine-protein kinase ABL1 (ABL1, Homo sapiens, UniProt P00519): remaining activity read 107%.
MAP kinase-activated protein kinase 3 (MAPKAPK3, Homo sapiens, UniProt Q16644) — remaining activity: 109%.
It gave 105% for remaining activity (Phosphorylase b kinase gamma catalytic chain, skeletal muscle/heart isoform (PHKG1, Homo sapiens, UniProt Q16816)).
It gave 103% for remaining activity (Tyrosine-protein kinase Blk (BLK, Homo sapiens, UniProt P51451)).
The remaining activity was 103% (Ribosomal protein S6 kinase alpha-6 (RPS6KA6, Homo sapiens, UniProt Q9UK32)).
The remaining activity was 98.8% (Homeodomain-interacting protein kinase 4 (HIPK4, Homo sapiens, UniProt Q8NE63)).
Serine/threonine-protein kinase WNK3 (WNK3, Homo sapiens, UniProt Q9BYP7) — remaining activity: 101%.
For Cyclin-dependent kinase 4, with cyclin D3 (CDK4, Homo sapiens, UniProt P11802): remaining activity read 97.5%.
The remaining activity was 102% (Cyclin-dependent kinase 6, with cyclin D3 (CDK6, Homo sapiens, UniProt Q00534)).
Ephrin type-B receptor 4 (EPHB4, Homo sapiens, UniProt P54760) — remaining activity: 101%.
Calcium/calmodulin-dependent protein kinase type II subunit beta (CAMK2B, Homo sapiens, UniProt Q13554) — remaining activity: 95.4%.
For Dual specificity tyrosine-phosphorylation-regulated kinase 3 (DYRK3, Homo sapiens, UniProt O43781): remaining activity read 108%.
It gave 97.4% for remaining activity (Mitogen-activated protein kinase kinase kinase kinase 4 (MAP4K4, Homo sapiens, UniProt O95819)).
It gave 105% for remaining activity (Ephrin type-A receptor 4 (EPHA4, Homo sapiens, UniProt P54764)).
It gave 101% for remaining activity (Ephrin type-B receptor 1 (EPHB1, Homo sapiens, UniProt P54762)).
The remaining activity was 98.3% (3-phosphoinositide-dependent protein kinase 1 (PDPK1, Homo sapiens, UniProt O15530)).
For Homeodomain-interacting protein kinase 2 (HIPK2, Homo sapiens, UniProt Q9H2X6): remaining activity read 102%.
It gave 110% for remaining activity (Serine/threonine-protein kinase 16 (STK16, Homo sapiens, UniProt O75716)).
The remaining activity was 110% (Testis-specific serine/threonine-protein kinase 2 (TSSK2, Homo sapiens, UniProt Q96PF2)).
The remaining activity was 95.8% (Serine/threonine-protein kinase 17A (STK17A, Homo sapiens, UniProt Q9UEE5)).
It gave 97.2% for remaining activity (Ribosomal protein S6 kinase alpha-5 (RPS6KA5, Homo sapiens, UniProt O75582)).
For Tyrosine-protein kinase receptor UFO (AXL, Homo sapiens, UniProt P30530): remaining activity read 99.2%.

For quick reference, copied from above (study 2):
`C/C(=C\CNc1ncnc2nc[nH]c12)CO` gave an inhibition of -24%.
The inhibition of `CC1(C)S[C@@H]2[C@H](NC(=O)[C@H](NC(=O)N3CCNC3=O)c3ccccc3)C(=O)N2[C@H]1C(=O)O` is reported as -3%.
With `COc1cc(C(=O)NCc2ccc(OCCN(C)C)cc2)cc(OC)c1OC` the inhibition was 6%.
`C[C@@H]1O[C@@H](O[C@H]2[C@H](Oc3cc(O)c4c(=O)cc(-c5ccc(O)c(O)c5)oc4c3)O[C@H](CO)[C@@H](O)[C@@H]2O)[C@H](O)[C@H](O)[C@H]1O` has an inhibition of -37%.
